Assay results of several laboratories.
Parts stem from different laboratories: compare values within a part only. Substitutions count along the parent as printed.

Series 1
Target: Interferon regulatory factor 3, full length, phosphomimetic (IRF3, Homo sapiens, UniProt Q14653, residues 1-427, S386D/S396D/S398D/S402D/T404D/S405D)
Method: protein-binding microarray
Form: double-stranded DNA, one strand shown
Matrix: in vitro
Tested at: 2540 nM top
Setting: 60-bp whole probe
Added: salmon DNA 0.4 mg/ml
Reference: random background probes
Reading: higher = stronger binding
All sequences stand within: GCCTAGCAC … GTCTTGATTCGCTTGACGCTGCTG
Residues (chain): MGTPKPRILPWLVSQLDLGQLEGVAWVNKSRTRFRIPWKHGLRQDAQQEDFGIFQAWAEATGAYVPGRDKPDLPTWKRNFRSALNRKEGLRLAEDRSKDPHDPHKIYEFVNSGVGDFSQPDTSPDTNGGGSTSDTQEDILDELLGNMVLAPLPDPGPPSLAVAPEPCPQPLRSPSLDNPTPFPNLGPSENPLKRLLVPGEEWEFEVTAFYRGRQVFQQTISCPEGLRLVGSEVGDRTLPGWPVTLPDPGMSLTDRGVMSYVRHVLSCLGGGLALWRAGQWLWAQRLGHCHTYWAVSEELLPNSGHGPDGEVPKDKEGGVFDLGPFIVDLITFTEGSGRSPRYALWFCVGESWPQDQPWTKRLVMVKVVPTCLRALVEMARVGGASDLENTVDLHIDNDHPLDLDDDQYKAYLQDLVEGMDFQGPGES
| Oligonucleotide | fitted relative affinity |
| --- | --- |
| GTAGATCTCAGTATCGATTAGTGCTAG | 1.02 z-score |
| GACGAACTGAGTTTCGCGACGTGCTAG | 0.528 z-score |
| GACGGTTTCCTTTTACTGACGTGCTAG | 10.4 z-score |
| TTAGGTTTCCGTATCGGTTAGTGCTAG | 6.99 z-score |
| TTAAGTTTCCTACTGCTTTAGTGCTAG | 5.68 z-score |
| GACGGTATCGTGTTTCGGGACGTGCTA | 1.99 z-score |
| CTCTATTGCTTTCTCTTTCAGTGCTAG | 2.54 z-score |
| TTTTATATCTTATCCTATCAGTGCTAG | 2.24 z-score |
| TCATAAGCAAAAATGATACTGTGCTAG | 0.43 z-score |

Series 2
Target: Max-binding protein MNT, bHLH-zipper, MAX partner unstated (MNT, Homo sapiens, UniProt Q99583, residues 220-300)
Method: protein-binding microarray
Form: double-stranded DNA, one strand shown
Matrix: in vitro
Tested at: not given
Setting: k-mer, scored over probes, only values ≥0.25
Reading: higher = stronger binding
Construct (chain): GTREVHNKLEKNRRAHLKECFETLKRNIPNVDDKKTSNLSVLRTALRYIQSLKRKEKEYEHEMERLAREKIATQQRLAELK
| Oligonucleotide | E-score |
| --- | --- |
| ACACGTTG | 0.442 |
| CCACATGC | 0.454 |
| TCGTGACA | 0.254 |
| AATGTGCG | 0.35 |
| CCCGCCCC | 0.409 |
| ACGTTCCA | 0.301 |
| AGTCGTGC | 0.263 |
| GGAACGCA | 0.301 |

Series 3
Target: CCNB2, cyclin fold, Cln2 fusion (human)
Method: yeast growth competition, sequencing
Matrix: yeast
Setting: strong parent motif
Reference: not given
Reading: higher = stronger binding
Starting sequence: PKMYT1 docking peptide (human); SFEPRNLLSLFED; partner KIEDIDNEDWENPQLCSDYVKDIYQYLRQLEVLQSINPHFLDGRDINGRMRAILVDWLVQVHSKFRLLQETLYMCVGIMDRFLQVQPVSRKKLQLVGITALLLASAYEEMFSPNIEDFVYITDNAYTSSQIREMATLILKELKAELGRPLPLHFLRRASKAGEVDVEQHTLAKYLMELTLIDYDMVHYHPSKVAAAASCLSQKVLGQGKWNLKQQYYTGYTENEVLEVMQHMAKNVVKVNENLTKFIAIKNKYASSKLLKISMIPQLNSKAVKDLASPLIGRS
| Change | normalised enrichment score |
| --- | --- |
| NFEPRNLLSLFED [S1N] | 1.88 |
| SFNPRNLLSLFED [E3N] | 0.345 |
| SNEPRNLLSLFED [F2N] | -0.186 |
| SFEPRNLLILFED [S9I] | 0.873 |
| SFEPRNLLSLDED [F11D] | -0.393 |
| SFEPRNLLSLFEA [D13A] | 1.2 |
| SFEPRNLLSLFEW [D13W] | -0.102 |

Single results of other studies
| Molecule | target | assay | system | setting | how to read | endpoint | result |
| --- | --- | --- | --- | --- | --- | --- | --- |
| PhoQ, residues 284 288 289 292 302 303 NLCILV | PhoP, residues 12 14 15 18 19 SQCLL (Escherichia coli, UniProt P23836) | Sort-seq, refers to: YFP reporter | E. coli | PhoQ-PhoP variant library, added: 10 µM Mg2+ | reference: high Mg2+ state, higher = stronger signaling | fold induction | 12.5 |

For quick reference, copied from above (series 1):
| Oligonucleotide | fitted relative affinity |
| --- | --- |
| TTAGGTTTCCGTATCGGTTAGTGCTAG | 6.99 z-score |
